Published values pooled from the literature.
Compare with care: the assays were run in different laboratories. ± gives the spread as reported.
Sequence of UniProt P03023 (whole entry, unmodified, looked up): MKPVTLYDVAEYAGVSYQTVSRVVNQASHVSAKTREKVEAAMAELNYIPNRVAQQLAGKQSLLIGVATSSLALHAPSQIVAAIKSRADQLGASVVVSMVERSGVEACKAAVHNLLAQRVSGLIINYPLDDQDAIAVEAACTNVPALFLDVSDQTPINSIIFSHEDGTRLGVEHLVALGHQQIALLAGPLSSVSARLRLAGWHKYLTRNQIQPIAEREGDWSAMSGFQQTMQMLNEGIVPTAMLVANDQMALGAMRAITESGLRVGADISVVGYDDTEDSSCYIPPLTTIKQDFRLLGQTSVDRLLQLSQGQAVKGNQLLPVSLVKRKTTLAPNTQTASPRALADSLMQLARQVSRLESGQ
Sequence of UniProt P41595 (whole entry, looked up): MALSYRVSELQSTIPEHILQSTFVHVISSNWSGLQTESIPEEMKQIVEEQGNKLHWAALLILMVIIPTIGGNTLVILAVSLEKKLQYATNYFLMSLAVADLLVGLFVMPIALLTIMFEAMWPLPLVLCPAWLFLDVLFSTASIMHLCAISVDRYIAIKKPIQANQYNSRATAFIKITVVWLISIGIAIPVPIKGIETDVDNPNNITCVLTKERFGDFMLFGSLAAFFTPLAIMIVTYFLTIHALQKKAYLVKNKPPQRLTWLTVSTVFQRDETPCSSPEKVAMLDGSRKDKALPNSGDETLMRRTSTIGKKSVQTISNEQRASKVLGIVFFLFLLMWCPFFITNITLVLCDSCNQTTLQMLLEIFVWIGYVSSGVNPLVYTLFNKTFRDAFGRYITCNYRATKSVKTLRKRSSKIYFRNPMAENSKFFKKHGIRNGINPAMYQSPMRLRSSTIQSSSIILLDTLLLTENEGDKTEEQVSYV
Sequence of UniProt P28222 (whole entry, looked up): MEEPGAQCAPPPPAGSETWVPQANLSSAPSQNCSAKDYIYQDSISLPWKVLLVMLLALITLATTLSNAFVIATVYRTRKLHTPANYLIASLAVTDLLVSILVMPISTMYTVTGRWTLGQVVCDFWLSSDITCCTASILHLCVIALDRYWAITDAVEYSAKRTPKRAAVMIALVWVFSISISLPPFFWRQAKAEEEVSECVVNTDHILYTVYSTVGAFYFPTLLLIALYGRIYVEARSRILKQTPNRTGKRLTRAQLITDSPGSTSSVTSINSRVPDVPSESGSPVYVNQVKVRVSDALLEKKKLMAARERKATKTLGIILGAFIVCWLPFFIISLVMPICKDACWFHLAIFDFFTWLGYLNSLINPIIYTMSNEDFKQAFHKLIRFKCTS
Sequence of UniProt Q8NER1 (whole entry, looked up): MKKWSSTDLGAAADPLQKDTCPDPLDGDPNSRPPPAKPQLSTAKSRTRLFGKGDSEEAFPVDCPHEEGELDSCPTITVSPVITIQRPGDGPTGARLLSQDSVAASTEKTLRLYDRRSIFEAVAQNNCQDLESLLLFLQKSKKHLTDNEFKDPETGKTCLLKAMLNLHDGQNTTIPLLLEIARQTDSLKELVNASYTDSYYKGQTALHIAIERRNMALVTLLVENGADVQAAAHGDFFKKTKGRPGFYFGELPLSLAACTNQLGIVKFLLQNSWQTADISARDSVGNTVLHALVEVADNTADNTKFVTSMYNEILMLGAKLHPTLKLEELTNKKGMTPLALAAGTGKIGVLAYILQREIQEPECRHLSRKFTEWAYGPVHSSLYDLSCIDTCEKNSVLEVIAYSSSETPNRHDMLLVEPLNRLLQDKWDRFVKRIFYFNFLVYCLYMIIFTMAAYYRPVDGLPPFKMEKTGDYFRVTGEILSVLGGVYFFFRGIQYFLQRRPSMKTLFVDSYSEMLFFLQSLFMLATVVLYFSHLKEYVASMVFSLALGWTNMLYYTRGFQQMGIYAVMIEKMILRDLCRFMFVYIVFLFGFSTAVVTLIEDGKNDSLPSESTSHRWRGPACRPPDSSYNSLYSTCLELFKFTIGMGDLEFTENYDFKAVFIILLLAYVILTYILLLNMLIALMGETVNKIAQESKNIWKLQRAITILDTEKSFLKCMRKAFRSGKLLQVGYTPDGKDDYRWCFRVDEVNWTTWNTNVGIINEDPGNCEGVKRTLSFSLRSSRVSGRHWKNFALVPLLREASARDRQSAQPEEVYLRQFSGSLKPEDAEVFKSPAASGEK
Sequence of UniProt P29276 (whole entry, looked up): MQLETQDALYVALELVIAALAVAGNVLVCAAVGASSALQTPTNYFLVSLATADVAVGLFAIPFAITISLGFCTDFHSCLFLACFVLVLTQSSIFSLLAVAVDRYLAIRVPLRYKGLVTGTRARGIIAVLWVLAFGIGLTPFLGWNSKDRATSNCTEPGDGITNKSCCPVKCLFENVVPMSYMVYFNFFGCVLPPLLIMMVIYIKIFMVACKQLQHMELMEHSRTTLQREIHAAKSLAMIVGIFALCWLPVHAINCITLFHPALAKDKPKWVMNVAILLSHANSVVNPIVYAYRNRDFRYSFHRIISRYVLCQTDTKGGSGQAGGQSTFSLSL
Sequence of UniProt O75469 (whole entry, looked up): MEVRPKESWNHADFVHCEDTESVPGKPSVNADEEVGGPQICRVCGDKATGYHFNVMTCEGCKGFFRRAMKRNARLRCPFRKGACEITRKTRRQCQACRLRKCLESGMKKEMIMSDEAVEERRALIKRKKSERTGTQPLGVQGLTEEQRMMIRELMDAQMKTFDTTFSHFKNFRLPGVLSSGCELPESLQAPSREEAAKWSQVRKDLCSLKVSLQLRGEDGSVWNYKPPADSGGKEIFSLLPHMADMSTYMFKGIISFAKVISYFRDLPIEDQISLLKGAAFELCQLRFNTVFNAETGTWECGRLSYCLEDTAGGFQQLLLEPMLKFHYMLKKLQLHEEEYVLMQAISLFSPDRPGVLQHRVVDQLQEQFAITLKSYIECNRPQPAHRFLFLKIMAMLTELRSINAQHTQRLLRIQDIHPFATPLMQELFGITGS
Sequence of UniProt Q8IZD6 (whole entry, looked up): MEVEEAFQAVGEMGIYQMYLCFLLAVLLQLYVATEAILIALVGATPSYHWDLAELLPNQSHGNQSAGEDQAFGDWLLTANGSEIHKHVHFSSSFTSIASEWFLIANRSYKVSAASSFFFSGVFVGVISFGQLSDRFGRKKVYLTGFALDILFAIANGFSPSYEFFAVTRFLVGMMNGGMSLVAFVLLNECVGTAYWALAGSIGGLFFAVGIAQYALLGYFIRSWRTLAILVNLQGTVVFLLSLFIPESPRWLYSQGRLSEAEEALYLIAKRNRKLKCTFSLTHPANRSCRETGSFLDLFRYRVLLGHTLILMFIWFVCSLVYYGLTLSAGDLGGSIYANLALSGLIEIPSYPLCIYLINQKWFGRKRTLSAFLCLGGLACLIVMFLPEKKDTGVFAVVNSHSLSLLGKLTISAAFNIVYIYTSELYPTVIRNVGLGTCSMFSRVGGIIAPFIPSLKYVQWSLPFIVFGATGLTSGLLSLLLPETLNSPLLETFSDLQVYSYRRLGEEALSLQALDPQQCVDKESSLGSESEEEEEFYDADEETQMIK
Sequence of UniProt Q14831 (whole entry, looked up): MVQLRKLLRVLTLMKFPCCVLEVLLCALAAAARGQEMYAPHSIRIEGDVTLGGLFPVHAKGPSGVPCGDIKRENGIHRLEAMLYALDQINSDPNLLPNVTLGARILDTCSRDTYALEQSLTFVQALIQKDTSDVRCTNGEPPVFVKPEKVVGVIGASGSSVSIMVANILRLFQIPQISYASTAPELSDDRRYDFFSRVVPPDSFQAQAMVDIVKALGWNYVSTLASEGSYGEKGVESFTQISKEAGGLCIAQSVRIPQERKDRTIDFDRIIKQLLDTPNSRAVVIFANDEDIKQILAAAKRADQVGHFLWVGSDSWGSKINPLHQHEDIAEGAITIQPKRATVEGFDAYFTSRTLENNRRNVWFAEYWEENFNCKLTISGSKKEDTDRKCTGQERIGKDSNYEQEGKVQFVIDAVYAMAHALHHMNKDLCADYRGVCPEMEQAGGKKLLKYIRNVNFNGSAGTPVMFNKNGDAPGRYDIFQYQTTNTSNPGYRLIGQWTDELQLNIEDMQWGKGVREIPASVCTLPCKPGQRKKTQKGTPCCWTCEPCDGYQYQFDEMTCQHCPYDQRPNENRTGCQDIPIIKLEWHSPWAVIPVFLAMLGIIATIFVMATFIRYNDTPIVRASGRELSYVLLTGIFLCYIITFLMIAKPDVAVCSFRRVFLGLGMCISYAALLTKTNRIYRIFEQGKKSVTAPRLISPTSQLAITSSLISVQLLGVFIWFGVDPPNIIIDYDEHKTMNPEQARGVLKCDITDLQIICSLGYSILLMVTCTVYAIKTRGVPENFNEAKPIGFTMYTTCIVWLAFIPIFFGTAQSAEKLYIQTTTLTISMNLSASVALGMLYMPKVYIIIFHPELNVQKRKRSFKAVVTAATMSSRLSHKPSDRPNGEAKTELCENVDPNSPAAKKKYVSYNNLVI
Sequence of UniProt P07550 (whole entry, looked up): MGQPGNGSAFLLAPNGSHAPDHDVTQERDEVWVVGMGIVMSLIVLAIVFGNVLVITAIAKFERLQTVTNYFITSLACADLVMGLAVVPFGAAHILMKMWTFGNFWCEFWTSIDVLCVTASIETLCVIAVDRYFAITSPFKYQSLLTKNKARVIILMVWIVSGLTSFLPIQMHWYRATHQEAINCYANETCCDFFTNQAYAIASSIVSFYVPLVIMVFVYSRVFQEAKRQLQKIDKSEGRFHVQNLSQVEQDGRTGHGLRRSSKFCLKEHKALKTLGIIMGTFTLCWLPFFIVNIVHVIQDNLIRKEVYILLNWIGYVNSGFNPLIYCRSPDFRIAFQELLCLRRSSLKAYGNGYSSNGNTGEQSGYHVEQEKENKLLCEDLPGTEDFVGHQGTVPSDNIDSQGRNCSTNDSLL

OC[C@H]1O[C@@H](OCCc2ccccc2)[C@H](O)[C@@H](O)[C@H]1O
EC50 (lacI (Escherichia coli, UniProt P03023, D149A); operator DNA release, nitrocellulose filter binding; with: O1 operator DNA): > 1000 µM

CCCCCCCCCCCCCC(=O)O[C@@H]1[C@@H](C)[C@@]2(O)[C@@H](C=C(CO)C[C@]3(O)C(=O)C(C)=C[C@@H]23)[C@@H]2C(C)(C)[C@]12OC(C)=O
EC50 (Adora2b (Rattus norvegicus, UniProt P29276); cAMP accumulation, agonist; H9c2; 5 min): 0.12 ± 0.036 µM

O=C1c2ccccc2C(=O)C1C(=O)C(c1ccccc1)c1ccccc1
EC50 (NR1I2 (Homo sapiens, UniProt O75469)): 60.7 ± 16.9 µM

C[n+]1ccc(-c2ccccc2)cc1
EC50 (Solute carrier family 22 member 15 (SLC22A15, Homo sapiens, UniProt Q8IZD6); creatine efflux, activator, LC-MS/MS; human cells, HBSS; 30 min, 37 °C, with: 1 mM and 10 mM creatine, butyrate, sodium): 300 µM

c1ccc(C(NCCNC(c2ccccc2)c2ccccc2)c2ccccc2)cc1
EC50 (GRM7 (Homo sapiens, UniProt Q14831); agonist, CellKey impedance; CHO cells expressing mGluR7): 0.868 µM

C[C@H]1O[C@@H](Oc2ccccc2[N+](=O)[O-])[C@H](O)[C@@H](O)[C@H]1O
EC50 (lacI (Escherichia coli, UniProt P03023, D149C); operator DNA binding, nitrocellulose filter binding; with: O1 operator DNA): 30 ± 2 µM

C[C@]12CC[C@@H](O)C[C@@H]1CC[C@@H]1[C@@H]2CC[C@]2(C)[C@@H]([N+](=O)[O-])CC[C@@H]12
EC50 (GABAA receptor (rat); enhancement of [3H]flunitrazepam binding, positive modulator; rat cerebral cortex homogenate; with: GABA 1.0 µM): 0.0229 ± 0.0035 µM

COc1cc(C(=O)N2CC[C@@H](O)[C@@H](N)C2)cc2nc(-c3cc4ccccc4n3CC3CC3)n(C)c12
EC50 (ADRB2 (Homo sapiens, UniProt P07550); agonist, TR-FRET): > 31.6 µM

C[C@]1(O)CC[C@@]2(C)[C@@H](CC[C@@H]3[C@@H]2CC[C@]2(C)[C@@H]([N+](=O)[O-])CC[C@@H]32)C1
EC50 (GABAA receptor (rat); enhancement of [3H]flunitrazepam binding, positive modulator; rat cerebral cortex homogenate; with: GABA 1.0 µM): > 10 µM

CCCCCCCC/C=C\CCCCCCCC(=O)NCc1ccc(O)c(OC)c1
EC50 (TRPV1 (Homo sapiens, UniProt Q8NER1); K+ efflux, agonist, BRET; HEK293T): 0.11 µM

COc1ccc2[nH]cc(C3=CCNCC3)c2c1
EC50 (HTR1B (Homo sapiens, UniProt P28222); receptor function, agonist; cells): 0.0098 µM

CC(C)C[C@H](NC(=O)[C@H](Cc1ccccc1)NC(=O)[C@H](Cc1ccc(O)cc1)NC(=O)CNC(=O)[C@H](CCCCN)NC(=O)[C@H](CO)NC(=O)[C@H](CCC(N)=O)NC(=O)CNC(=O)[C@@H](NC(=O)[C@H](CO)NC(=O)[C@@H]1CCCN1C(=O)[C@H](CO)NC(=O)[C@H](CCC(N)=O)NC(=O)[C@H](Cc1ccc(O)cc1)NC(=O)[C@H](CCC(=O)O)NC(=O)[C@H](C)NC(=O)[C@H](CCCCN)NC(=O)[C@@H](N)Cc1ccccc1)C(C)C)C(=O)N[C@@H](Cc1ccccc1)C(=O)N[C@@H](CCCNC(=N)N)C(=O)N1CCC[C@H]1C(=O)N[C@@H](CCCNC(=N)N)C(=O)N[C@@H](CC(N)=O)C(N)=O
EC50 (Neuromedin-U receptor 2 (Mus musculus, UniProt Q8BZ39); IP-1 accumulation, agonist, IP-1; mean of independent runs): 0.00079 µM

C[C@H](N)Cn1ncc2ccc3c(c21)CCCO3
EC50 (HTR2B (Homo sapiens, UniProt P41595); agonist, aequorin; may be range): 0.00398 ± 0.00089 µM

A few entries again:
CC(C)C[C@H](NC(=O)[C@H](Cc1ccccc1)NC(=O)[C@H](Cc1ccc(O)cc1)NC(=O)CNC(=O)[C@H](CCCCN)NC(=O)[C@H](CO)NC(=O)[C@H](CCC(N)=O)NC(=O)CNC(=O)[C@@H](NC(=O)[C@H](CO)NC(=O)[C@@H]1CCCN1C(=O)[C@H](CO)NC(=O)[C@H](CCC(N)=O)NC(=O)[C@H](Cc1ccc(O)cc1)NC(=O)[C@H](CCC(=O)O)NC(=O)[C@H](C)NC(=O)[C@H](CCCCN)NC(=O)[C@@H](N)Cc1ccccc1)C(C)C)C(=O)N[C@@H](Cc1ccccc1)C(=O)N[C@@H](CCCNC(=N)N)C(=O)N1CCC[C@H]1C(=O)N[C@@H](CCCNC(=N)N)C(=O)N[C@@H](CC(N)=O)C(N)=O
EC50 (Neuromedin-U receptor 2 (Mus musculus, UniProt Q8BZ39); IP-1 accumulation, agonist, IP-1; mean of independent runs): 0.00079 µM

C[C@H](N)Cn1ncc2ccc3c(c21)CCCO3
EC50 (HTR2B (Homo sapiens, UniProt P41595); agonist, aequorin; may be range): 0.00398 ± 0.00089 µM
